Results gathered from unrelated publications.
Each numbered part is a random draw from the data of one study; scales do not carry over between parts.

Set 1 — method: protein binding microarray; form: double-stranded DNA, one strand shown; medium: in vitro; concentration: not given; baseline: not given; reading: higher = stronger binding; endpoint: E-score
Target: Histone acetyltransferase KAT6A, winged helix 2, GST fusion (KAT6A, Homo sapiens, UniProt Q92794, residues 85-181)
Notes: 8-mer, flanks averaged, mean of 2 arrays, mostly near background
Residues (chain): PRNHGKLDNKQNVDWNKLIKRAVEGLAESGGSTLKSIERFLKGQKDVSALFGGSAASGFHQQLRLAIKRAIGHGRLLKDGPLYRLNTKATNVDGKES
Strand = ATCACGTA; value = -0.215
Strand = TAAAGGCA; value = 0.141
Strand = CTGCGTTA; value = -0.00637
Strand = AGGCAGCC; value = 0.0284
Strand = TAGTTTGA; value = 0.0788
Strand = TAGCTACA; value = -0.14
Strand = TATCGGAA; value = -0.0883
Strand = ATAATCAG; value = 0.0232
Strand = GTGTTTAA; value = 0.0706
Strand = GGATGCAA; value = 0.0966
Strand = AAGGCTAT; value = -0.156
Strand = CAGAGCCG; value = 0.0945

Set 2 — method: RNAcompete; form: RNA; medium: in vitro; concentration: 20 nM; notes: 7-mer, probes averaged, single round; baseline: mean of 7-mers; reading: higher = stronger binding; endpoint: 7-mer Z-score
Target: PABPC1L2, full length, GST fusion (mouse, UniProt A0ABA7IW68)
Target sequence (chain): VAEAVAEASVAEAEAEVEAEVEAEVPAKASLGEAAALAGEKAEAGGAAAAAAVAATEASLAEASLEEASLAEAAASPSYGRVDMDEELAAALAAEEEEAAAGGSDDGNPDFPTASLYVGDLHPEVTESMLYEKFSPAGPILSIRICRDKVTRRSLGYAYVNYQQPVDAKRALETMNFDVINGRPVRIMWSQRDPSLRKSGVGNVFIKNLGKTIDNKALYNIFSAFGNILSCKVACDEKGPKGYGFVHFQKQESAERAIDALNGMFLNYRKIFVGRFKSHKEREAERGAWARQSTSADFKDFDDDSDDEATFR
Strand = GUCCCCC; value = -0.316
Strand = UCACUAA; value = 0.0207
Strand = CCACUAC; value = -0.246
Strand = UUUUGUC; value = -0.385
Strand = CCCCGAC; value = -0.378
Strand = UUAUAGU; value = -0.248
Strand = CCAAAGU; value = -0.00289
Strand = GUAGACC; value = -0.124
Strand = GAUGAAU; value = -0.135
Strand = CAGCGUA; value = -0.159
Strand = AUGCGUC; value = -0.353
Strand = CAAAACA; value = 4.21
Strand = GGACGCU; value = 0.00617
Strand = CGUAGUG; value = -0.237

Set 3 — method: RNA Bind-n-Seq; form: RNA; medium: in vitro; concentration: 20 nM; notes: 6-mer, flanks averaged, single round; added: 150 mM KCl; baseline: input library; reading: higher = stronger binding; endpoint: 6-mer enrichment (R)
Target: TAR DNA-binding protein 43, full length, His tag (TARDBP, Homo sapiens, UniProt Q13148, residues 1-414)
Strand = GCGUCG; value = 1.41
Strand = UUUCUU; value = 0.647
Strand = AGAUUC; value = 0.564
Strand = CUAAGU; value = 0.632
Strand = UCGCGA; value = 0.771
Strand = GCCCUG; value = 0.811
Strand = GACAUA; value = 0.681
Strand = CGCGCU; value = 0.789
Strand = AGGGGC; value = 4.14
Strand = UAACAU; value = 0.626
Strand = UCAUUA; value = 0.545

Further values, each from its own experiment
Substance = PhoQ, residues 284 288 289 292 302 303 ALASRC; target = PhoP, residues 12 14 15 18 19 IQFRS (Escherichia coli, UniProt P23836); assay = Sort-seq, measured: YFP reporter; test system = E. coli; setting = PhoQ-PhoP variant library, added: 10 µM Mg2+; how to read = baseline: high Mg2+ state, higher = stronger signaling; endpoint = fold induction; value = 17.8

For quick reference, copied from above (set 1):
Strand = AGGCAGCC; value = 0.0284
Strand = TAGTTTGA; value = 0.0788
Strand = TAGCTACA; value = -0.14
Strand = TATCGGAA; value = -0.0883
Strand = ATAATCAG; value = 0.0232
Strand = GTGTTTAA; value = 0.0706
